{"data": "Results from different studies", "chain of UniProt P08684 (whole entry, looked up)": "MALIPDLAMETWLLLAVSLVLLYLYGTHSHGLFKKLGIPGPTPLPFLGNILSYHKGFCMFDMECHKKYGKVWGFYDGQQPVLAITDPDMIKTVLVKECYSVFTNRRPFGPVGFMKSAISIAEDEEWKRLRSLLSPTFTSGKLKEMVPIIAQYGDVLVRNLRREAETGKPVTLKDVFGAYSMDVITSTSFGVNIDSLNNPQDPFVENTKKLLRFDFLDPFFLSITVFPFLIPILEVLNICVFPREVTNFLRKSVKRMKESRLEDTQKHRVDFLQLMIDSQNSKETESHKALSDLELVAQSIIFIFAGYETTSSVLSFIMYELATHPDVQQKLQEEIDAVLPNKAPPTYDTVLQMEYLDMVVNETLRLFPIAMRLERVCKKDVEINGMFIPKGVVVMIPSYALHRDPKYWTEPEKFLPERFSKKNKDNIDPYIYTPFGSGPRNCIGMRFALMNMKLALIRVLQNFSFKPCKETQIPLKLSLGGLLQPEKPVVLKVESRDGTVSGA"}
{"Compound": "CC(C)c1nc(N(C)S(C)(=O)=O)nc(-c2ccc(F)cc2)c1/C=C/[C@@H](O)C[C@@H](O)CC(=O)O", "test system": "healthy human subjects", "setting": "oral, dose not given, study CL-0537 safety set", "endpoint": "incidence of injury or poisoning", "result": "3.6%"}
{"Compound": "Cc1cc(C)c(CNC(=O)c2cc(Cl)c3c(c2C)O[C@@](C)([C@H]2CC[C@H](N(C)C)CC2)O3)c(=O)[nH]1", "test system": "human, relapsed/refractory NHL", "setting": "concentration not given, all TEAEs, grade 5", "endpoint": "COVID-19 pneumonia incidence", "result": "0%"}
{"Compound": "CNC(=O)[C@@H](NC(=O)[C@H](CC(C)C)[C@H](O)C(=O)NO)C(C)(C)C", "target or system": "human fibrinogen", "test": "SDS-PAGE", "test system": "Daboia russelii", "setting": "concentration not given, unit not given, with: TN venom", "how to read": "baseline: untreated fibrinogen", "endpoint": "remaining fibrinogen γ chain", "result": 0.251}
{"Compound": "CC[C@H](C)[C@H](NC(=O)[C@H](CC(C)C)NC(=O)[C@H](Cc1c[nH]c2ccccc12)NC(=O)[C@H](CCC(N)=O)NC(=O)[C@@H](NC(=O)[C@H](Cc1ccccc1)NC(=O)[C@H](C)NC(=O)[C@H](CCCCNC(=O)COCCOCCNC(=O)COCCOCCNC(=O)CC[C@H](NC(=O)CCCCCCCCCCCCCCCCCCC(=O)O)C(=O)O)NC(=O)[C@H](CCC(N)=O)NC(=O)[C@H](C)NC(=O)[C@@H](NC(=O)[C@H](CCCCN)NC(=O)[C@H](CC(=O)O)NC(=O)[C@H](CC(C)C)NC(=O)C(C)(C)NC(=O)[C@@H](NC(=O)[C@H](CO)NC(=O)[C@H](Cc1ccc(O)cc1)NC(=O)[C@H](CC(=O)O)NC(=O)[C@H](CO)NC(=O)[C@@H](NC(=O)[C@H](Cc1ccccc1)NC(=O)[C@@H](NC(=O)CNC(=O)[C@H](CCC(=O)O)NC(=O)C(C)(C)NC(=O)[C@@H](N)Cc1ccc(O)cc1)[C@@H](C)O)[C@@H](C)O)[C@@H](C)CC)[C@@H](C)CC)C(C)C)C(=O)N[C@@H](C)C(=O)NCC(=O)NCC(=O)N1CCC[C@H]1C(=O)N[C@@H](CO)C(=O)N[C@@H](CO)C(=O)NCC(=O)N[C@@H](C)C(=O)N1CCC[C@H]1C(=O)N1CCC[C@H]1C(=O)N1CCC[C@H]1C(=O)N[C@@H](CO)C(N)=O", "test system": "human, moderate renal impairment, plasma", "setting": "subcutaneous, 5 mg single dose, median", "endpoint": "Tmax", "result": "60 h"}
{"Compound": "CC[C@H](C)[C@H](NC(=O)[C@H](CC(C)C)NC(=O)[C@H](Cc1c[nH]c2ccccc12)NC(=O)[C@H](CCC(N)=O)NC(=O)[C@@H](NC(=O)[C@H](Cc1ccccc1)NC(=O)[C@H](C)NC(=O)[C@H](CCCCNC(=O)COCCOCCNC(=O)COCCOCCNC(=O)CC[C@H](NC(=O)CCCCCCCCCCCCCCCCCCC(=O)O)C(=O)O)NC(=O)[C@H](CCC(N)=O)NC(=O)[C@H](C)NC(=O)[C@@H](NC(=O)[C@H](CCCCN)NC(=O)[C@H](CC(=O)O)NC(=O)[C@H](CC(C)C)NC(=O)C(C)(C)NC(=O)[C@@H](NC(=O)[C@H](CO)NC(=O)[C@H](Cc1ccc(O)cc1)NC(=O)[C@H](CC(=O)O)NC(=O)[C@H](CO)NC(=O)[C@@H](NC(=O)[C@H](Cc1ccccc1)NC(=O)[C@@H](NC(=O)CNC(=O)[C@H](CCC(=O)O)NC(=O)C(C)(C)NC(=O)[C@@H](N)Cc1ccc(O)cc1)[C@@H](C)O)[C@@H](C)O)[C@@H](C)CC)[C@@H](C)CC)C(C)C)C(=O)N[C@@H](C)C(=O)NCC(=O)NCC(=O)N1CCC[C@H]1C(=O)N[C@@H](CO)C(=O)N[C@@H](CO)C(=O)NCC(=O)N[C@@H](C)C(=O)N1CCC[C@H]1C(=O)N1CCC[C@H]1C(=O)N1CCC[C@H]1C(=O)N[C@@H](CO)C(N)=O", "test": "item: anti-drug antibodies", "test system": "healthy human subjects", "setting": "5/5/8/10 mg escalating, post-baseline", "endpoint": "subjects with treatment-emergent ADA", "result": "14.3%"}
{"Compound": "CC[C@H](C)[C@H](NC(=O)[C@H](C)NC(=O)[C@H](CCC(=O)O)NC(=O)[C@H](CCC(=O)O)NC(=O)[C@H](CC(C)C)NC(=O)[C@H](CCCCN)NC(=O)[C@H](CCCCN)NC(=O)[C@H](CCSC)NC(=O)[C@H](CCC(=O)O)NC(=O)[C@H](Cc1ccc(O)cc1)NC(=O)[C@H](CCC(=O)O)NC(=O)[C@H](CC(C)C)NC(=O)[C@H](CC(=O)O)NC(=O)[C@H](CC(C)C)NC(=O)[C@H](Cc1ccccc1)NC(=O)[C@@H](NC(=O)[C@@H](NC(=O)[C@H](CC(N)=O)NC(=O)[C@@H](NC(=O)[C@H](CCC(N)=O)NC(=O)[C@H](CC(=O)O)NC(=O)[C@H](CC(C)C)NC(=O)[C@@H](N)CO)[C@@H](C)CC)C(C)C)[C@@H](C)O)C(=O)N[C@@H](CCCCN)C(=O)N[C@@H](CCCCN)C(=O)N[C@@H](CC(C)C)C(=O)N[C@@H](CCC(=O)O)C(=O)N[C@@H](CCC(=O)O)C(=O)N[C@@H](CO)C(=O)N[C@@H](Cc1ccc(O)cc1)C(=O)N[C@H](C(=O)N[C@@H](CC(=O)O)C(=O)N[C@@H](CC(C)C)C(=O)N[C@@H](CCCCN)C(=O)N[C@@H](CCC(=O)O)C(=O)N[C@@H](CC(C)C)C(=O)NCC(=O)N[C@@H](CO)C(=O)NCC(=O)N[C@@H](CO)C(=O)NCC(=O)NCCOCCOCCOCCOCCC(=O)N[C@@H](CSCC(=O)O[C@H]1CC[C@@]2(C)C(=CC[C@H]3[C@@H]4CC[C@H]([C@H](C)CCCC(C)C)[C@@]4(C)CC[C@@H]32)C1)C(N)=O)[C@@H](C)CC", "target or system": "SARS-CoV-2", "test": "pseudovirus infection", "setting": "concentration not given, 37 °C, storage", "endpoint": "fold reduction of activity", "result": "~92 fold"}
{"Compound": "CC[C@H](C)[C@H](NC(=O)[C@H](CC(C)C)NC(=O)[C@H](Cc1c[nH]c2ccccc12)NC(=O)[C@H](CCC(N)=O)NC(=O)[C@@H](NC(=O)[C@H](Cc1ccccc1)NC(=O)[C@H](C)NC(=O)[C@H](CCCCNC(=O)COCCOCCNC(=O)COCCOCCNC(=O)CC[C@H](NC(=O)CCCCCCCCCCCCCCCCCCC(=O)O)C(=O)O)NC(=O)[C@H](CCC(N)=O)NC(=O)[C@H](C)NC(=O)[C@@H](NC(=O)[C@H](CCCCN)NC(=O)[C@H](CC(=O)O)NC(=O)[C@H](CC(C)C)NC(=O)C(C)(C)NC(=O)[C@@H](NC(=O)[C@H](CO)NC(=O)[C@H](Cc1ccc(O)cc1)NC(=O)[C@H](CC(=O)O)NC(=O)[C@H](CO)NC(=O)[C@@H](NC(=O)[C@H](Cc1ccccc1)NC(=O)[C@@H](NC(=O)CNC(=O)[C@H](CCC(=O)O)NC(=O)C(C)(C)NC(=O)[C@@H](N)Cc1ccc(O)cc1)[C@@H](C)O)[C@@H](C)O)[C@@H](C)CC)[C@@H](C)CC)C(C)C)C(=O)N[C@@H](C)C(=O)NCC(=O)NCC(=O)N1CCC[C@H]1C(=O)N[C@@H](CO)C(=O)N[C@@H](CO)C(=O)NCC(=O)N[C@@H](C)C(=O)N1CCC[C@H]1C(=O)N1CCC[C@H]1C(=O)N1CCC[C@H]1C(=O)N[C@@H](CO)C(N)=O", "test system": "human", "setting": "subcutaneous, 5.0 mg once weekly, week 7, multiple doses", "endpoint": "Vz/F", "result": "8.01 L"}
{"Compound": "CC(C)(C)[C@H](NC(=O)C(F)(F)F)C(=O)N1C[C@H]2[C@@H]([C@H]1C(=O)N[C@H](C#N)C[C@@H]1CCNC1=O)C2(C)C", "target or system": "Calu-3", "setting": "48 h", "endpoint": "CC50", "result": "106 µM"}
{"Compound": "Cn1cnc(Cn2c(=O)[nH]/c(=N\\c3cc4cn(C)nc4cc3Cl)n(Cc3cc(F)c(F)cc3F)c2=O)n1", "target or system": "Cytochrome P450 3A4 (CYP3A4, Homo sapiens, UniProt P08684)", "test": "inhibitor", "test system": "human liver microsomes", "setting": "30 min preincubation, preincubation without NADPH, with: testosterone 60 µM", "endpoint": "IC50", "result": "> 100 µM"}
{"Compound": "CC(C)(C)[C@H](NC(=O)C(F)(F)F)C(=O)N1C[C@H]2[C@@H]([C@H]1C(=O)N[C@H](C#N)C[C@@H]1CCNC1=O)C2(C)C", "test system": "human, fasted", "setting": "oral, 500 mg single dose, 28 days, no ritonavir", "endpoint": "participants with related adverse events", "result": "0%"}
{"Compound": "Cn1cnc(Cn2c(=O)[nH]/c(=N\\c3cc4cn(C)nc4cc3Cl)n(Cc3cc(F)c(F)cc3F)c2=O)n1", "test system": "human, all renal function groups", "setting": "oral, 375 mg, treatment-related decreased GFR, Moderate severity", "endpoint": "patients with adverse event", "result": "3.1%"}
{"Compound": "Nc1ncnc2c([C@@H]3N[C@H](CO)[C@@H](O)[C@H]3O)c[nH]c12", "target or system": "Marburg marburgvirus", "test": "virus production", "test system": "HeLa, Musoke", "setting": "25 µM", "endpoint": "supernatant virus titre", "result": "0 PFU/mL"}
{"note": "A few entries again:"}
{"Compound": "CC(C)(C)[C@H](NC(=O)C(F)(F)F)C(=O)N1C[C@H]2[C@@H]([C@H]1C(=O)N[C@H](C#N)C[C@@H]1CCNC1=O)C2(C)C", "target or system": "Calu-3", "setting": "48 h", "endpoint": "CC50", "result": "106 µM"}
